Published values pooled from the literature.
Every numbered part comes from another study and shows a few of its results, in no order.

Study 1 — technique: protein binding microarray; form: double-stranded DNA, one strand shown; matrix: in vitro; concentration: not given; baseline: not given; reading: higher = stronger binding; quantity: E-score
Target: Histone acetyltransferase KAT6A, winged helix 1, GST fusion (KAT6A, Homo sapiens, UniProt Q92794, residues 1-85)
Notes: 8-mer, flanks averaged, mean of 2 arrays, mostly near background
Target sequence (chain): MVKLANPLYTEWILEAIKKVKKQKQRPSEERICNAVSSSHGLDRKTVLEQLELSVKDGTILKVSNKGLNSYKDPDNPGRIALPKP
AAGACGTA: -0.196
GAGAGGGC: 0.114
ATCCGGTC: -0.0147
GTGAGGTA: -0.11
GGTGAACC: 0.0597
CCGCCTAA: 0.253
GTCCCCAC: -0.0136
GCAAACAC: 0.0687
CTATTTAA: -0.0436
GTGGGTTA: -0.0648
TAAAGACA: -0.0551
AGGATTTC: -0.176
AGCATCTC: -0.173
AGGGGATA: -0.177
AATTACAA: -0.168
CCTGGGTA: -0.164
CCTATAGC: 0.107
CATTTCGG: -0.118

Study 2 — technique: RNA Bind-n-Seq; form: RNA; matrix: in vitro; concentration: 365 nM; baseline: no-protein control; reading: higher = stronger binding; quantity: RBNS enrichment (R)
Target: RNA binding protein fox-1 homolog 2, RRM domain, GST-SBP tag (RBFOX2, Homo sapiens, UniProt O43251-10, residues 100-194)
Notes: natural RNA segment, single round, ends assumed
Shared flanks, not repeated: GGGAGUUCUACAGUCCGACGAUC … UGGAAUUCUCGGGUGCCAA
Residues (chain): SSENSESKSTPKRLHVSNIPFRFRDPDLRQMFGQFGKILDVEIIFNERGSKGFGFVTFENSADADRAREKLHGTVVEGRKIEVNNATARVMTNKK
UCUAACCAUAUACGAUAGGGCUCUUCGCUUUUAAUGAUAUCUGGGAUUUCUGUGGAACUUGGCAAAUUUUCAGAGCACCUUCACUCACAUAAUGUCAUUUGAACCUCACA: 0.499
AAAUUAUGCCACUUUCCUAUAGUUUCUGUGUUCUGUUUAUUGUAUGGUGUAUUCACUCUUGGAAAAUAUGUAAUAGUUGUGUAUCCAGAAUAUGUGUCUUCACCUGAAUA: 0.745
GACGCAUAUACAUGAUUCUCAUAUUUAUUGUGUAAAUUGGCUUUAAUACACUUGGAUCACAUUCACUUCCUGUGGAAAAGCUAGCUUUCCCAUGCAGUCAAAGCUUAUAA: 0.296
CCUUUUUAGCAAGUAAACCUUGAACUUGGUCAGUGUGGAUAUUUCUGCUAGGCUGACGACUAAGCUGCUGGCCCUGCAGAGGGUCCAGUGUACACUCCACUCUGCUACAG: 0.331
CAAAGCCGUACAGAGCCUACGUGCUCUUUCCUGCAAGUGGGAGAAAACUAAUCAAUGGCACACAGGGCCAGGUGUGGCCCUGUGAGGCAAAGGAUAAUGUCACCUCAGGA: 0.271
GUUCUCAUGGGCAGGCUCAGGUCUGUCCCGCUGCCCUGGGCACGAGGUCUCCUGAGGACCUGGGCCUGUUCUGCUCCUAGGAGACCUGAGCCCGUUACCGCGUGACUCCC: 0.254
AAAGGUAGACAUUUUGGGAAUCAUAACUGUAUUACUAAACGUGUUUAAUCAAAAUUCAUAGUUGGAUCAGCCAUUGCCUUGUACAGGUUUAUUUUUUCCCCACAGACGCA: 1.94
UCUAAGGGAAGAGUCUGGCCUGCUCUCUGACUUGCACCUUCCUCGCCCUUAGAAGCAGGGAUUGCAAAGCUUAGGGCCCCCGUGCCAAGCAAAGACCAAAGAUGCAUCAG: 0.303

Study 3 — technique: aptamer microarray, sandwich; form: DNA with 2'F-ANA; matrix: in vitro; concentration: 200 nM; together with: Cy3 exosite-II aptamer, 400 nM; reading: higher = stronger binding; quantity: mean fluorescence intensity; strand: GGTTGGTGTGGTTGG
Target: Prothrombin, mature alpha-thrombin (F2, Homo sapiens, UniProt P00734)
Notes: whole 15-mer aptamer, many near background
2'F-ANA at 2 3 4 9 10 11 14 15: 170 a.u.
2'F-ANA at 1 2 3 4 6 7 8 11 12 13: 202 a.u.
2'F-ANA at 1 2 10 13 15: 50.6 a.u.
2'F-ANA at 2 3 8 9 10 13 15: 329 a.u.
2'F-ANA at 1 3 6 11 12 15: 408 a.u.
2'F-ANA at 4 6 8 13 14 15: 81.9 a.u.
2'F-ANA at 3 5 7 13: 143 a.u.
2'F-ANA at 1 5 6 7 9 10 11 12 14 15: 49.8 a.u.
2'F-ANA at 3 5 6 8 10 11: 56.5 a.u.
2'F-ANA at 1 3 7 9 13 15: 226 a.u.
2'F-ANA at 2 3 4 7 9 10 13 15: 211 a.u.
2'F-ANA at 1 2 4 6 7 8 10 11 12 13 14: 90.1 a.u.
2'F-ANA at 1 2 3 5 6 7 8 12 14: 47.5 a.u.
2'F-ANA at 3 5 6 8 10 12 15: 57.8 a.u.
2'F-ANA at 4 6 10 11 13: 67.6 a.u.
2'F-ANA at 1 3 12 14: 136 a.u.
2'F-ANA at 1 3 5 7 11 12: 105 a.u.
2'F-ANA at 1 3 5 6 9 10 11: 52.5 a.u.
2'F-ANA at 2 5 6 8 9 10 11 13 14 15: 47.1 a.u.
2'F-ANA at 3 5 6 8 9 12 13 14: 59 a.u.
2'F-ANA at 2 9 10 12 13 14 15: 82.5 a.u.
2'F-ANA at 1 2 3 5 6 11 15: 58.6 a.u.

Study 4 — technique: protein-binding microarray; form: double-stranded DNA, one strand shown; matrix: in vitro; concentration: 940 nM top; notes: 60-bp whole probe; together with: salmon DNA 0.4 mg/ml; baseline: random background probes; reading: higher = stronger binding; quantity: fitted relative affinity; shared flanks, not repeated: GCCTAGCAC … GTCTTGATTCGCTTGACGCTGCTG
Target: Interferon regulatory factor 5, full length, phosphomimetic (IRF5, Homo sapiens, UniProt Q13568-2, residues 1-514, S451D/S453D/S456D/S462D)
TTAGGTTTCCTTTTCCTTGAGTGCTAG: 2.36 z-score
GACGGACTGGGTTATCGGGACGTGCTA: -0.288 z-score
GACGAACTCGGGTTTCGAGACGTGCTA: 1.7 z-score
TGGGTAATGCTTCTGTATTCGTGCTAG: -0.125 z-score
GACGGACTGGGGTTTCGCGACGTGCTA: 0.344 z-score
TTAGGTATCGGACTGGGTTGGTGCTAG: 3.57 z-score
TCATAAATCTTTGTTGGAACTGTGCTA: 0.189 z-score
GACTGTTTCCTACTGCTGACGTGCTAG: 0.613 z-score
TTAGGTTCCCTTTTCCTTTCGTGCTAG: 1.08 z-score
TCATTTTTGTTGTTTTTACTGTGCTAG: 1.34 z-score
GACGTTCTCGGTTTCGGGACGTGCTAG: 6.61 z-score
GACAGTATCGGTTTCGGGACGTGCTAG: 10.2 z-score
GGCGATATCAGTCTCGAGACGTGCTAG: 1.12 z-score
TTAGGACTGGGACTGGCTTAGTGCTAG: -0.353 z-score
CACGGTATCCTTTTCCTGACGTGCTAG: 0.508 z-score
GACGGTTTCGGACGGGGGACGTGCTAG: 8.33 z-score
TTAGGACTGGATACTGGGTTAGTGCTA: -0.544 z-score
TCATTTTTATCAAATGTGACTGTGCTA: 0.0932 z-score
TTAGGTCTCGGTTTTGGTTAGTGCTAG: 5.48 z-score

For quick reference, copied from above (study 4):
TCATTTTTGTTGTTTTTACTGTGCTAG: 1.34 z-score
GACGGACTGGGGTTTCGCGACGTGCTA: 0.344 z-score
TTAGGACTGGGACTGGCTTAGTGCTAG: -0.353 z-score
GACTGTTTCCTACTGCTGACGTGCTAG: 0.613 z-score
GGCGATATCAGTCTCGAGACGTGCTAG: 1.12 z-score
TTAGGTTTCCTTTTCCTTGAGTGCTAG: 2.36 z-score
TCATAAATCTTTGTTGGAACTGTGCTA: 0.189 z-score
GACGGTTTCGGACGGGGGACGTGCTAG: 8.33 z-score
